Measured values gathered from unrelated publications.
Protocols differ between the studies behind these lines.
CTSL: Procathepsin L (CTSL, Homo sapiens, UniProt P07711)
UniProt P07711, sequence (whole entry, looked up): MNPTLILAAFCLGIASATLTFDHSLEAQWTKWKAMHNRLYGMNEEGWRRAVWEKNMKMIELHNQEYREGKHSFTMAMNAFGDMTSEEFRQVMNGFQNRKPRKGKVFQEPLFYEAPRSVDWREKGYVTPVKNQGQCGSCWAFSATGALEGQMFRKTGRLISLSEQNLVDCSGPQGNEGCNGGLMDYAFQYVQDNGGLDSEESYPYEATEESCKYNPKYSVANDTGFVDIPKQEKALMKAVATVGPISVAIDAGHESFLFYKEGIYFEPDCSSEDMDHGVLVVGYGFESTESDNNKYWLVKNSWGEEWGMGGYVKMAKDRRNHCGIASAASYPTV
PFF0160c E182D: Dihydroorotate dehydrogenase (quinone), mitochondrial (PFF0160c, Plasmodium falciparum, UniProt Q08210, E182D)
TMPRSS2: Transmembrane protease serine 2 (TMPRSS2, Homo sapiens, UniProt O15393)
UniProt O15393, sequence (whole entry, looked up): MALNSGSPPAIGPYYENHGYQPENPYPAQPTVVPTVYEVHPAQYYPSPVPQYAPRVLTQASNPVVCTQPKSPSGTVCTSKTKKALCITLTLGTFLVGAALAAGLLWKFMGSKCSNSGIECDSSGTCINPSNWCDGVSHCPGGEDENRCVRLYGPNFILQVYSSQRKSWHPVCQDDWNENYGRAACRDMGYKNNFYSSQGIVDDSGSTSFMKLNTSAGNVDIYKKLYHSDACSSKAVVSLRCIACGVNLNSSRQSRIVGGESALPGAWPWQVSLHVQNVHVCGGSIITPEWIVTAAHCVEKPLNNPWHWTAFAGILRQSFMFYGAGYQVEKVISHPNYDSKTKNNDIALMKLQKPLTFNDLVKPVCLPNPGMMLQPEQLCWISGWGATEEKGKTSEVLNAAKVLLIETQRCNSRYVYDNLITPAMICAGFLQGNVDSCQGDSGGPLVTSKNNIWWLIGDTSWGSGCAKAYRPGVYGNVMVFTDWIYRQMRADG
ADRA2C: Alpha-2C adrenergic receptor (ADRA2C, Homo sapiens, UniProt P18825)
UniProt P10721, sequence (whole entry, unmodified, looked up): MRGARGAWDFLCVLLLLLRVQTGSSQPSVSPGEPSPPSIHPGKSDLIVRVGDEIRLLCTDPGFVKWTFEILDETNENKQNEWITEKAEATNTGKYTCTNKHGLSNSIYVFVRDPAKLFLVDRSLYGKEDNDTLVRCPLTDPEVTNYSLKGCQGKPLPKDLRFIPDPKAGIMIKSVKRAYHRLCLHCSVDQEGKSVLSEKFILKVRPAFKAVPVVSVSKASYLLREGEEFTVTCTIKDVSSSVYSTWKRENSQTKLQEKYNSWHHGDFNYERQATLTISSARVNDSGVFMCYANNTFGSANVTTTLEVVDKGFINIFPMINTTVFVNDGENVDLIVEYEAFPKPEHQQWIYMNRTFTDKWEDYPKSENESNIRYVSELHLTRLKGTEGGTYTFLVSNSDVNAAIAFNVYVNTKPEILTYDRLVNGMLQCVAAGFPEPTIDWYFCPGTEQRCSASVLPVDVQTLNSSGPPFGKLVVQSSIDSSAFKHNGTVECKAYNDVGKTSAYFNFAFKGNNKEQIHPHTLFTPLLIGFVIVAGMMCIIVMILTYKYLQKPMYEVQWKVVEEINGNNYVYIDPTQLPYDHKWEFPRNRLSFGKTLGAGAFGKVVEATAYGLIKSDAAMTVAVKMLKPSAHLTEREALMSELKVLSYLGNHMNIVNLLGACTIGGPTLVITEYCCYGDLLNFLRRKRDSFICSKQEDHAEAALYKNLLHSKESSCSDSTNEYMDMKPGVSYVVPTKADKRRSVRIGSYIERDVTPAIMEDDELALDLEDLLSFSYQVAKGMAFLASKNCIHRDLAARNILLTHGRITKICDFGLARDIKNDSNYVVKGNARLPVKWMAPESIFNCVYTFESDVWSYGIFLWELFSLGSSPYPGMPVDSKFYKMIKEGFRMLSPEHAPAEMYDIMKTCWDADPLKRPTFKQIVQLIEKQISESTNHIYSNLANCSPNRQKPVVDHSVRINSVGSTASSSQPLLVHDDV
UniProt P18825, sequence (whole entry, looked up): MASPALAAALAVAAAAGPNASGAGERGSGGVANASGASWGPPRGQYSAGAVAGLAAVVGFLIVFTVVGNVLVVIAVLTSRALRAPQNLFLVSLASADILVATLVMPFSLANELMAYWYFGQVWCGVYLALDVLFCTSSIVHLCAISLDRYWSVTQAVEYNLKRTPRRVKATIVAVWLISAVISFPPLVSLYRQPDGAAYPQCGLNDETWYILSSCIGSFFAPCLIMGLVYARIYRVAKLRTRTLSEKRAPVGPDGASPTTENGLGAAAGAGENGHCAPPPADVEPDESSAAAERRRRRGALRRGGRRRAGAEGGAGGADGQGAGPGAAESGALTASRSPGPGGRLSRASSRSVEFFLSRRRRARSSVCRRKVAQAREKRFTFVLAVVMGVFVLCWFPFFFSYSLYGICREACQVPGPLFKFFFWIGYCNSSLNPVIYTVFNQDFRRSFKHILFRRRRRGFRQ
UniProt P35968, sequence (whole entry, looked up): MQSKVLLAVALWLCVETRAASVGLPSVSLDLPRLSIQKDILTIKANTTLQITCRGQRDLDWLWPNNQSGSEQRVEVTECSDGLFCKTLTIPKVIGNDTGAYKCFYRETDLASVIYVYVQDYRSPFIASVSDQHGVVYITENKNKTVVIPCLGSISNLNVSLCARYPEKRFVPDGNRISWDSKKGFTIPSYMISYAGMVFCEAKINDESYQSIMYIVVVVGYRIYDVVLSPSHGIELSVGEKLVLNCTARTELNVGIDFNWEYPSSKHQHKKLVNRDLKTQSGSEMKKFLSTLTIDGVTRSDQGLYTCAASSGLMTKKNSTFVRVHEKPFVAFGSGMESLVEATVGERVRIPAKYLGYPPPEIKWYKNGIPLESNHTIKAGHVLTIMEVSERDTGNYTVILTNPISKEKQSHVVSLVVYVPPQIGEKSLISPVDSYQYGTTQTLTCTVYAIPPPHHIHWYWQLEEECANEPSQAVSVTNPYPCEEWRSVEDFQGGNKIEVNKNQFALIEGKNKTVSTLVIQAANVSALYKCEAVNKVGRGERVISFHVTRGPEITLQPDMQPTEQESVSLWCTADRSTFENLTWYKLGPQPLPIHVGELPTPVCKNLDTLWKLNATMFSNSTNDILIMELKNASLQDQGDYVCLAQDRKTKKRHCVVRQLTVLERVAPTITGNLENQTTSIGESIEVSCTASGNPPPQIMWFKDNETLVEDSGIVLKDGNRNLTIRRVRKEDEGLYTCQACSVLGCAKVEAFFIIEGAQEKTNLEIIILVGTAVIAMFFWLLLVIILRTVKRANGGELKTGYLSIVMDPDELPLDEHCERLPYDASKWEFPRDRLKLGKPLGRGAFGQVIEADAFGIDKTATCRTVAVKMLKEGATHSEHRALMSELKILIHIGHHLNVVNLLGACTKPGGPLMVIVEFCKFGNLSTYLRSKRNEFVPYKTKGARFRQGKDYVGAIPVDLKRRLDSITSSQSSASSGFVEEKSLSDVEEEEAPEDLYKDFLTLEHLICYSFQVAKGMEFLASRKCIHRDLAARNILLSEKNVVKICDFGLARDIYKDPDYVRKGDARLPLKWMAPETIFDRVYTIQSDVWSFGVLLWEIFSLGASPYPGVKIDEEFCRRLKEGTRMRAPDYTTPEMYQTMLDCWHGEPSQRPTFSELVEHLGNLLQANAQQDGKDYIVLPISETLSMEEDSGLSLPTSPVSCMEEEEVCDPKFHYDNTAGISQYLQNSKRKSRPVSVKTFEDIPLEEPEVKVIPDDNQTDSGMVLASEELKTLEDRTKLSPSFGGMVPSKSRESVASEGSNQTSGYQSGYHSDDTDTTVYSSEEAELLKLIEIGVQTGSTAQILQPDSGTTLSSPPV
UniProt O14920, sequence (whole entry, looked up): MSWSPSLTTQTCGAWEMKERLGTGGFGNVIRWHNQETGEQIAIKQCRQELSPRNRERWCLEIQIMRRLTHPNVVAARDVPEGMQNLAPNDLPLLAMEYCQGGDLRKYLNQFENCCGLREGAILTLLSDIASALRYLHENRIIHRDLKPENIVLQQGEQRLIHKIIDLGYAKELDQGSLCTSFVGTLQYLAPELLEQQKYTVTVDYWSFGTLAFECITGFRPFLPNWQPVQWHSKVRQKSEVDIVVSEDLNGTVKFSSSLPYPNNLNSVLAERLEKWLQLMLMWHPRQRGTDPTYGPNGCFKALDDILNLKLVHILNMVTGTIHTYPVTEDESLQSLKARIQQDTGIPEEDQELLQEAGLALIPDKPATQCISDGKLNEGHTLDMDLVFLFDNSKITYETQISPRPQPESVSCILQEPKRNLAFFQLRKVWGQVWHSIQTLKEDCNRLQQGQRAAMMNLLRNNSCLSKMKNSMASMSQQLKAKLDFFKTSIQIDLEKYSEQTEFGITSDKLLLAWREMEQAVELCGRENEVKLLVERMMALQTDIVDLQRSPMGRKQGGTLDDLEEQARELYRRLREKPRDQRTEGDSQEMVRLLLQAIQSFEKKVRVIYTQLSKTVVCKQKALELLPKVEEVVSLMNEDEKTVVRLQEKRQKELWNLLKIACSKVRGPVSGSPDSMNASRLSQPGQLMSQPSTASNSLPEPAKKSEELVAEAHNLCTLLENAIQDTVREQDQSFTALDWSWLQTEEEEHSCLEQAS
UniProt P60651, sequence (whole entry, looked up): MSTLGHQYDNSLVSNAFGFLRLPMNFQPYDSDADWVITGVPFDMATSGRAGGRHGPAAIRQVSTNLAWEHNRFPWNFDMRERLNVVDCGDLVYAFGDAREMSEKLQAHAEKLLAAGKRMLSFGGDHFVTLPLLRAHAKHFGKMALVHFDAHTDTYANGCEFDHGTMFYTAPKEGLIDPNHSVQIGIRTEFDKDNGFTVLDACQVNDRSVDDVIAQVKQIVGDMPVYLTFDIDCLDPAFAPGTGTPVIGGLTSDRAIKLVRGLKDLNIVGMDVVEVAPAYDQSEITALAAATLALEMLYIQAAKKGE

COC(=O)c1cc(-c2cccc(NC(=O)Nc3ccc(OC)cc3)c2)on1
MIC (Mycolicibacterium fortuitum; microbial growth, broth dilution; ATCC6841; 48 h): > 64 mg/L

CCCCCc1cc(=O)c2ccccc2[nH]1
remaining activity (CTSL; enzyme activity, inhibitor; 100 µM): 123%

O=c1cc(NCCCNCc2scc(I)c2I)[nH]c2ccccc12
IC50 (PFF0160c E182D; enzyme activity, inhibitor, absorbance): 3.22 µM

Oc1ccc(C[C@@H]2CN([C@H](Cc3ccc4ccccc4c3)CN3CCC[C@H]3CN3CCNC[C@@H]3Cc3ccc4ccccc4c3)CCN2CCC23CC4CC(CC(C4)C2)C3)cc1
remaining binding (OPRK1 (Cavia porcellus, UniProt P41144); ligand displacement, radioligand; 0.5 µM, pH 7.5): 98.7%

CS(=O)(=O)N([C@@H](CCC(N)=O)C(=O)N[C@@H](Cc1ccccc1)C(=O)N[C@H](CCCNC(=N)N)C(=O)c1nc2ccccc2s1)S(C)(=O)=O
activity vs control (TMPRSS2; enzyme activity, inhibitor; 1 nM): 87%

c1cncc([C@@H]2CCCN2)c1
inhibition (ADRA2C; ligand displacement; 50 µM): 10.7%

C[C@H](NC(=O)[C@H](CCC(N)=O)NC(=O)[C@@H](N)CCCNC(=N)N)C(=O)N[C@@H](CCCNC(=N)N)C(=O)c1nc2ccccc2s1
activity vs control (TMPRSS2; enzyme activity, inhibitor; 1 nM): 57%

[2H]c1c([2H])c([C@]2([2H])CCCN2C(=O)C(C)(C)Oc2ccc3cn[nH]c3c2)c([2H])c([2H])c1C([2H])([2H])[2H]
remaining binding (IKBKB (Homo sapiens, UniProt O14920); binding, competition with immobilised ligand; 1 µM): 83%

N=C(N)NCCC[C@@H](N)C(=O)N[C@H](CCC(N)=O)C(=O)N[C@@H](Cc1ccccc1)C(=O)N[C@@H](CCCNC(=N)N)C(=O)c1nc2ccccc2s1
activity vs control (TMPRSS2; enzyme activity, inhibitor; 1 nM): 26%

CN1C(=S)N(c2ccccc2)C(=O)/C1=C1/C(=O)N(C)c2ccc(Cl)cc21
inhibition (ACHE (Homo sapiens, UniProt P22303); enzyme activity, inhibitor, Ellman; 1 µM): 42%

CC(C)CC(=O)OC[C@H]1O[C@@](C#N)(c2ccc3c(N)ncnn23)[C@H](O)[C@@H]1O
inhibition (EDNRA (Homo sapiens, UniProt P25101); cell-free assay; 20 µM): -2%

COC(=O)c1cc(-c2cccc(NC(=S)Nc3ccc(F)cc3)c2)on1
MIC (Pseudomonas aeruginosa; microbial growth, broth dilution; ATCC27853): > 64 mg/L

C[C@H](NC(=O)[C@H](CCC(N)=O)NC(=O)[C@H](CCCNC(=N)N)NS(C)(=O)=O)C(=O)N[C@@H](CCCNC(=N)N)C(=O)c1nc2ccccc2s1
activity vs control (TMPRSS2; enzyme activity, inhibitor; 1 nM): 85%

N=C(N)NCCCCN
Km (speB (Escherichia coli, UniProt P60651); enzyme activity, substrate, absorbance; pH 7.5): 718 µM

NCCc1c[nH]c2ccc(O)cc12
remaining activity (CTSL; enzyme activity, inhibitor; 100 µM): 44.2%

CCN(CC)CCCC[C@H](NC(=O)[C@H](CC(C)C)NC(=O)[C@H](C)NC(=O)[C@H](Cc1ccccc1)NC(=O)c1ccc(C(C)(C)C)cc1)C(=O)N[C@@H](CO)C(=O)OC
ΔTm (Bromodomain testis-specific protein, BD2 (BRDT, Homo sapiens, UniProt Q58F21); thermal stability, DSF; 25 µM): 0.21 °C

Cn1c(C(=O)[C@H](CCCNC(=N)N)NC(=O)[C@H](Cc2ccccc2)NC(=O)[C@H](CCC(N)=O)NC(=O)CCCCNC(=N)N)nc2ccccc21
activity vs control (TMPRSS2; enzyme activity, inhibitor; 1 nM): 100%

NCC(O)c1ccccc1 (centres unmarked)
remaining activity (CTSL; enzyme activity, inhibitor; 100 µM): 130%

CCc1cc2c(cc1CC)CC(NC[C@@H](O)c1ccc(O)c3[nH]c(=O)ccc13)C2
IC50 (PFF0160c E182D; enzyme activity, inhibitor, absorbance): 3.28 µM

CC(=O)N[C@@H](CCC(N)=O)C(=O)N[C@@H](Cc1ccccc1)C(=O)N[C@@H](CCCNC(=N)N)C(=O)c1nccn1C
activity vs control (TMPRSS2; enzyme activity, inhibitor; 1 nM): 100%

Nc1ncc(-c2nc(N3CCOCC3)nc(N3CCOCC3)n2)c(C(F)F)n1
remaining binding (KIT (Homo sapiens, UniProt P10721, L576P); binding, competition with immobilised ligand; 10 µM): 7.4%

C#Cc1n[nH]c2c(-c3cn(C(C)c4ccccn4)c(=O)[nH]c3=O)cc(F)cc12 (centres unmarked)
inhibition (KDR (Homo sapiens, UniProt P35968); enzyme activity, inhibitor; 1 µM): -1.1%

COc1ncccc1-c1cnn2ccc(N3CCN(C(=O)OC(C)C)CC3)nc12
remaining binding (PLK4 (Homo sapiens, UniProt O00444); binding, competition with immobilised ligand; 1 µM): 71%

CN1CCC[C@H]1c1cccnc1
inhibition (ADRA2C; ligand displacement; 50 µM): 4.08%

CC[C@@H](C)[C@H](NC(=O)[C@H](CCc1ccccc1)NC(=O)CCc1ccccc1)C(=O)N[C@@H](CCCNC(=N)N)C(=O)c1nc2ccccc2s1
activity vs control (TMPRSS2; enzyme activity, inhibitor; 1 nM): 84%

Cc1nn(C)cc1-c1nc2c(N3CCN(Cc4ccc(Cl)cc4)CC3)c(Cl)cnc2[nH]1
remaining binding (KIT (Homo sapiens, UniProt P10721, T670I/V559D); binding, competition with immobilised ligand; 1 µM): 19%

For quick reference, copied from above:
CCN(CC)CCCC[C@H](NC(=O)[C@H](CC(C)C)NC(=O)[C@H](C)NC(=O)[C@H](Cc1ccccc1)NC(=O)c1ccc(C(C)(C)C)cc1)C(=O)N[C@@H](CO)C(=O)OC
ΔTm (Bromodomain testis-specific protein, BD2 (BRDT, Homo sapiens, UniProt Q58F21); thermal stability, DSF; 25 µM): 0.21 °C

Cn1c(C(=O)[C@H](CCCNC(=N)N)NC(=O)[C@H](Cc2ccccc2)NC(=O)[C@H](CCC(N)=O)NC(=O)CCCCNC(=N)N)nc2ccccc21
activity vs control (TMPRSS2; enzyme activity, inhibitor; 1 nM): 100%
